# Published values collected from several papers.
# Protocols differ between the studies behind these lines. Values joined by “and” are separate records of one study, mostly repeats; a detail may differ. ± gives the spread as reported.
# Chain of UniProt Q007T0 (whole entry, looked up): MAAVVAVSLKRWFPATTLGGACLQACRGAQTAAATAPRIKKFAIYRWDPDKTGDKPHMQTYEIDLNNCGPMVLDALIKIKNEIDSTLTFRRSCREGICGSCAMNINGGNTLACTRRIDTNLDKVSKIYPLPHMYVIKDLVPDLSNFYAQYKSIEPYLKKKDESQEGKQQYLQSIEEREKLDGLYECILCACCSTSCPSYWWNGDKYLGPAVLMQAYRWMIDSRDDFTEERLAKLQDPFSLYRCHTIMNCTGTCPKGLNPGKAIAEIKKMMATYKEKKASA
# Chain of UniProt D0VWV4 (whole entry, looked up): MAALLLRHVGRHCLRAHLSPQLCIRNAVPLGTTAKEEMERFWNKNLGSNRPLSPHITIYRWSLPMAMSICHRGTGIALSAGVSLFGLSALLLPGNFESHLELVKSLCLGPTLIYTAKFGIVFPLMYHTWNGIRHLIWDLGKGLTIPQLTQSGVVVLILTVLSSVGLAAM
# Chain of UniProt A5GZW8 (whole entry, looked up): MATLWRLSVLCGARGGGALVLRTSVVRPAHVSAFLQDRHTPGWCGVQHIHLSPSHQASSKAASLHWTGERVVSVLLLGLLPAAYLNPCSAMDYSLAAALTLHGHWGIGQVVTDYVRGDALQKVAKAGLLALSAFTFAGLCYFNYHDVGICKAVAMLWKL
# Chain of UniProt P0A988 (whole entry, unmodified, looked up): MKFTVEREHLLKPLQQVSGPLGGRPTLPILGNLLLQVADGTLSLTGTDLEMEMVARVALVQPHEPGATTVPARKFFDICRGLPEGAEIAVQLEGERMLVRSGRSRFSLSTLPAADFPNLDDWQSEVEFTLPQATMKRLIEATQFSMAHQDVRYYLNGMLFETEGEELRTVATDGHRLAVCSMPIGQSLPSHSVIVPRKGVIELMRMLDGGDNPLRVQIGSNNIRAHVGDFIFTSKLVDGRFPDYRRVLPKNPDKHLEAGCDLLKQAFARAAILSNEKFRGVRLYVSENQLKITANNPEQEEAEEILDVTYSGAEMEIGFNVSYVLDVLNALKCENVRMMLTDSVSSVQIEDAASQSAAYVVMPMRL
# Chain of UniProt P34972 (whole entry, looked up): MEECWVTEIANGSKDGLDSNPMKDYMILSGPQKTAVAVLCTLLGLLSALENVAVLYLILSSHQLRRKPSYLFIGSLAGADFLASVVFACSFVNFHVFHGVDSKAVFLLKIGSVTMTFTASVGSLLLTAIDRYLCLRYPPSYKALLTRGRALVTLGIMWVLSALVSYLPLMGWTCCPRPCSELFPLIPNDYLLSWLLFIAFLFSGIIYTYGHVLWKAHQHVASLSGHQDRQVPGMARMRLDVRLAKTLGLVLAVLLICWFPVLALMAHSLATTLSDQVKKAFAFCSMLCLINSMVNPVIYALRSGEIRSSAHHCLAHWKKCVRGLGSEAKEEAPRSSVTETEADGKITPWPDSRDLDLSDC
# Chain of UniProt Q99LR1 (whole entry, looked up): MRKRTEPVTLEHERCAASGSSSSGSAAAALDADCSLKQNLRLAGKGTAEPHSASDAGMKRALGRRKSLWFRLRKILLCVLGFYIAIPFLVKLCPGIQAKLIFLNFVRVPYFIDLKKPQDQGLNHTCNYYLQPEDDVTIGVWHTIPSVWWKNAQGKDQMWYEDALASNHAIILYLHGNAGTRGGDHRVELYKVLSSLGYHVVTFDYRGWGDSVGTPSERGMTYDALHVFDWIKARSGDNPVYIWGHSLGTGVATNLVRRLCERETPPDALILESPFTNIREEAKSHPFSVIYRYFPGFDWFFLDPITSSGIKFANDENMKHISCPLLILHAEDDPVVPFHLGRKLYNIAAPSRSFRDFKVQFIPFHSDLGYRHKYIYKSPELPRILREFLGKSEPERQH
# Chain of UniProt P49137 (whole entry, looked up): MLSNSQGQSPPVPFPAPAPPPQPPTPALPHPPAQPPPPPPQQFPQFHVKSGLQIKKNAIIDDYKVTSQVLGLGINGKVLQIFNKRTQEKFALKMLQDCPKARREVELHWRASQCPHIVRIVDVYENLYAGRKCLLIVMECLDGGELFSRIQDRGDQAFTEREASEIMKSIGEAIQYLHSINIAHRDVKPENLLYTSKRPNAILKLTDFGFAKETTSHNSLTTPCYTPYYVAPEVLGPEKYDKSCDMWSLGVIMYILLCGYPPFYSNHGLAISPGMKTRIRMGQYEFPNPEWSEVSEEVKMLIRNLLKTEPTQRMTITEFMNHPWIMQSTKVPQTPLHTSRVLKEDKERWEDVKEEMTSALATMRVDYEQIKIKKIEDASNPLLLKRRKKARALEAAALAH
# Chain of UniProt O15121 (whole entry, looked up): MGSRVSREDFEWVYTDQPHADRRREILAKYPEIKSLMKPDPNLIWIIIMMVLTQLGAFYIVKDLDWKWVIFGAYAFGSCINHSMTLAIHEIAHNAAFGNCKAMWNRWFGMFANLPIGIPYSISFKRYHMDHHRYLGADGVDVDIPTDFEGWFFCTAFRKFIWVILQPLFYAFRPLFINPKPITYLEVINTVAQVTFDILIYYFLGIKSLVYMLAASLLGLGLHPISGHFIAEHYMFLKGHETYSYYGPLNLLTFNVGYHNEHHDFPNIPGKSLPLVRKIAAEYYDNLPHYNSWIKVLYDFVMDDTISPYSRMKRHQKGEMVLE
# Chain of UniProt P07949 (whole entry, unmodified, looked up): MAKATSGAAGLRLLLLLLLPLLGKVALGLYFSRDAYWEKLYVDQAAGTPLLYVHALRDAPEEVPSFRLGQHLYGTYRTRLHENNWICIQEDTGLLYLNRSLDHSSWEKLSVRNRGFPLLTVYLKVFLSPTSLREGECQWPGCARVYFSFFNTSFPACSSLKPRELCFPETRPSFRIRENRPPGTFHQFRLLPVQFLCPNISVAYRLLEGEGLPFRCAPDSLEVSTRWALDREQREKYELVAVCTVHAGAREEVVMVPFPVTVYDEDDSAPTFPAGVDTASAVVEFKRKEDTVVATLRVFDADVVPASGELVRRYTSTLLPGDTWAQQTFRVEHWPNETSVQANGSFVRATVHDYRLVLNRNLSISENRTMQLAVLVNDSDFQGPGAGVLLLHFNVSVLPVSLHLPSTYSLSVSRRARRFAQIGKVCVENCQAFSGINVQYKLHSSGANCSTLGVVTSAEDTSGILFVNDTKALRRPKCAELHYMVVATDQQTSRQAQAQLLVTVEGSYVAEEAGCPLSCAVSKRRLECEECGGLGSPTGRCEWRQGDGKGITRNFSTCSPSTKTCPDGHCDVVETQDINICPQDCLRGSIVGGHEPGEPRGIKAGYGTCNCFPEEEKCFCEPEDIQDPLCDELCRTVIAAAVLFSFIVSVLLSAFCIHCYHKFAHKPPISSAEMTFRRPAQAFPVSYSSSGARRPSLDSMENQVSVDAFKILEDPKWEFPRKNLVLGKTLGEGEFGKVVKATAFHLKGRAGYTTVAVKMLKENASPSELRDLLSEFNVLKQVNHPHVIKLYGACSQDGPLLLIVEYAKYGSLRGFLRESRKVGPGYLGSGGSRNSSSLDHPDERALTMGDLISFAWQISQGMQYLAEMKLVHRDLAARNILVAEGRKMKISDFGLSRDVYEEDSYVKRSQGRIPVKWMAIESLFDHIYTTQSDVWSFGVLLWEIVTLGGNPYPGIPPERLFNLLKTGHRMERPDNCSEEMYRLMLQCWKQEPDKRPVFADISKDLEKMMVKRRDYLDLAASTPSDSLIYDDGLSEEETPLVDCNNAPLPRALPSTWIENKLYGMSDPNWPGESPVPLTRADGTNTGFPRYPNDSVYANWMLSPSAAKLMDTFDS
# Chain of UniProt P35372 (whole entry, looked up): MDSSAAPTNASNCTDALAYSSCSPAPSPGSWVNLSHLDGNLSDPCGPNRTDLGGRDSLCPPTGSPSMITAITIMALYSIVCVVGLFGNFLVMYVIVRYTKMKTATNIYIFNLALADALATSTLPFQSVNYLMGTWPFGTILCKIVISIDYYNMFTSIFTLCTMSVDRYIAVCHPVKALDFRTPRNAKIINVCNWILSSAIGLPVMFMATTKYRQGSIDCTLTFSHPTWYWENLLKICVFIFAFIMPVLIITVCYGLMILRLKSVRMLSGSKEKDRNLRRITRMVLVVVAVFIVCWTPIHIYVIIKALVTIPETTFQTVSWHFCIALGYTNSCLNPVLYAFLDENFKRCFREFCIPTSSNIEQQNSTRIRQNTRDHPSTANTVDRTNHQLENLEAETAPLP
# Chain of UniProt Q13418 (whole entry, looked up): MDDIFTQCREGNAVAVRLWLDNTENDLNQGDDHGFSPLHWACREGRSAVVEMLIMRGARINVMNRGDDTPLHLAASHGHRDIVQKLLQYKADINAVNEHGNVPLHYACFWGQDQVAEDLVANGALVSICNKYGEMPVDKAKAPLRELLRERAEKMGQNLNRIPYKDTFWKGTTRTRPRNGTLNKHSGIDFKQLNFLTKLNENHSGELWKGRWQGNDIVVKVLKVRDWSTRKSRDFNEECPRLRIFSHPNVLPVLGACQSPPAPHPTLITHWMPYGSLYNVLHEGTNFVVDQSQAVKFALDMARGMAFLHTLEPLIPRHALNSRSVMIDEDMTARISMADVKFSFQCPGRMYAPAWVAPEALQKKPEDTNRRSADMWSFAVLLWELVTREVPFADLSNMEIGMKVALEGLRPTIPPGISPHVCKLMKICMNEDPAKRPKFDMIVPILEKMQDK
SMILES,target,assay,test system,conditions,how to read,endpoint,value
C=CC(=O)NC[C@H](NC(=O)[C@H](CC1CCCCC1)NC(=O)[C@H](CCC(N)=O)NC(C)=O)C(=O)N[C@@H](CC(C)C)C(=O)N[C@@H](Cc1ccccc1)C(=O)O,"Beta sliding clamp (Escherichia coli, UniProt P0A988)","binding, isothermal titration calorimetry",,"pH 7.4, 37 °C",,ΔG,-8.9 kcal/mol
CN(C)[C@H]1C[C@@]23CC[C@@]4(O2)C(=CC[C@]2(C)[C@@H](c5ccc6ccncc6c5)CC[C@H]24)C=C3[C@@H](O)[C@@H]1O,"Scaffold protein ILK (ILK, Homo sapiens, UniProt Q13418)","ATP probe labelling, inhibitor, KiNativ profiling",,0.1 µM,,inhibition,-1.9%
CC(C)[C@H]1NC(=O)C[C@H]2/C=C/CCSSC[C@@H](NC1=O)C(=O)N[C@H](Cc1cccc3ccccc13)C(=O)NCC(=O)O2,"Proto-oncogene tyrosine-protein kinase receptor Ret (RET, Homo sapiens, UniProt P07949, M918T)","enzyme activity, inhibitor",,10 µM,,inhibition,3.2%
O=C(O)c1cccc(CP(=O)(O)O)n1,"Metallo-beta-lactamase VIM-2 (VIM-2, Escherichia coli, UniProt Q5U7L7)","enzyme activity, inhibitor",,with: nitrocefin,,kon,8000 ± 833 M⁻¹ s⁻¹
COC(=O)[C@@H](NC(=O)c1nn(Cc2ccc(F)cc2)c2cc(OCCCCNC(=N)N)ccc12)C(C)(C)C,"Cannabinoid receptor 2 (CNR2, Homo sapiens, UniProt P34972)",GTPase,,,reference: FUB,Gi GTP turnover minimum,56%
CON(C(=O)c1cn(C)nc1C(F)F)C(C)Cc1c(Cl)cc(Cl)cc1Cl (stereo not drawn),"SDHD/SDHC/SDHB (Sus scrofa, UniProt A5GZW8+D0VWV4+Q007T0)","enzyme activity, inhibitor, DCIP reduction",pig,"1 µM, with: DCIP 40 µM",,reaction velocity,0.00357 µM/s and 0.00263 µM/s
C#CCCCCOc1ccc2c(c1)CCCN2C(=O)CCl,"Sphingolipid delta(4)-desaturase DES1 (DEGS1, Homo sapiens, UniProt O15121)",mass spectrometry profiling,H460 cell lysate,"100 µM over 10 µM, UniProt O15121",reference: high over low concentration,reactivity ratio,1.49
COCC1CCCCN1C(=O)n1cc(C(O)(c2ccccc2)c2ccccc2)nn1 (stereo not drawn),"Lysophosphatidylserine lipase ABHD12 (Abhd12, Mus musculus, UniProt Q99LR1)","probe labelling, inhibitor, competitive ABPP-SILAC",mouse T cells,"concentration not given, 4 h, protein level","reference: treated over DMSO cells, lower = stronger inhibition",SILAC activity ratio,1.29
CS(C)(=O)=Nc1ccc(-c2ccc(-c3nc4cc(O[C@@H]5CO[C@H]6[C@@H]5OC[C@H]6O)[nH]c4cc3F)cc2)cc1,"MAP kinase-activated protein kinase 2 (MAPKAPK2, Homo sapiens, UniProt P49137)","enzyme activity, inhibitor",,10 µM,,inhibition,-3%
C[C@@H](Cc1ccsc1)NC(=O)NC[C@H](Cc1ccc(O)cc1)N(C)C,"Mu-type opioid receptor (OPRM1, Homo sapiens, UniProt P35372)",agonist,HEK-293T,,,Emax,94 ± 3%
Cc1cc(C)cc(/N=N/c2cccc([B-](F)(F)F)c2)c1.[K+],"Chymotrypsinogen A (Bos taurus, UniProt P00766)","enzyme activity, inhibitor",,with: Suc-AAPF-AMC,reference: Ki cis over Ki trans,switching factor,4.9 ± 1
O=C1NC(=O)c2c1c1cc(F)c[n+]3c1c1c2c2cc(O)ccc2[n]1[Ru-4]312([N]=C=S)[S+]3CC[S+]1CC[S+]2CC3 (stereo not drawn),"Ephrin type-A receptor 5 (EPHA5, Homo sapiens, UniProt P54756)",enzyme activity,,"100 nM, human enzyme, with: 10 µM ATP",reference: untreated,remaining activity,126%

# Excerpt of the above:
SMILES,target,assay,test system,conditions,how to read,endpoint,value
Cc1cc(C)cc(/N=N/c2cccc([B-](F)(F)F)c2)c1.[K+],"Chymotrypsinogen A (Bos taurus, UniProt P00766)","enzyme activity, inhibitor",,with: Suc-AAPF-AMC,reference: Ki cis over Ki trans,switching factor,4.9 ± 1
